{"sequences": {"note": "Protein sequences, listed by entry. Tags and fused reporters are not part of them.", "UniProt P51451, whole entry": "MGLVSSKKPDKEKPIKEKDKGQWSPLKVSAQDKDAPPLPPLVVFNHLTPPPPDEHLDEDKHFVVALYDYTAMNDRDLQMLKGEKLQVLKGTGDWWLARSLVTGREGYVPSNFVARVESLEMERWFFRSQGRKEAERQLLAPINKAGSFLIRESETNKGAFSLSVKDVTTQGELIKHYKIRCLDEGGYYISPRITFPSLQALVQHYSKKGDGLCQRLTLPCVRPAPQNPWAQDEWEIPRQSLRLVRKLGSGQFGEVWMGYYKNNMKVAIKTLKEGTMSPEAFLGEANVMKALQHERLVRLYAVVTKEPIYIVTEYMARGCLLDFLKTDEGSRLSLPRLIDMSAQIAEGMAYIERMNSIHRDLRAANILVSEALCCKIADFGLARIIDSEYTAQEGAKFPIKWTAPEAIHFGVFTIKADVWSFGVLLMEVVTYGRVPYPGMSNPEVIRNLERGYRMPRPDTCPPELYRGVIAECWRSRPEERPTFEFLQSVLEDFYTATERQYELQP", "UniProt Q9NY57, whole entry": "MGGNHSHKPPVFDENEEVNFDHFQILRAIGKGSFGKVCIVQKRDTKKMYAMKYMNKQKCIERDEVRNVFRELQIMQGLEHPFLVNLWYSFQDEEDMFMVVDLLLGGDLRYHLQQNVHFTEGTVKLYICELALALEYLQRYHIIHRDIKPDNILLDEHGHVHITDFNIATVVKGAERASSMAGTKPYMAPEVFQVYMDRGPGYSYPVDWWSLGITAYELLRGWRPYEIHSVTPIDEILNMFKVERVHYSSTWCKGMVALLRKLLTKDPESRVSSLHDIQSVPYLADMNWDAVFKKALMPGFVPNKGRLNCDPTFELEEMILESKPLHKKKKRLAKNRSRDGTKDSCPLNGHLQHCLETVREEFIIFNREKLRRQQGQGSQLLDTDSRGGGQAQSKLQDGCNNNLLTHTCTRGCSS"}, "data": "Published values of several laboratories", "note": "Each line is one published result; not all experiments were run side by side."}
{"SMILES": "Cc1ccc(CCNC(=O)c2cnn3c(O)c(Cc4cc(C)ccc4C)c(C)nc23)cc1", "target or system": "dengue virus 2", "test": "viral replication, single-cycle viral yield", "system": "New Guinea C", "conditions": "10 µM", "quantity": "inhibition", "result": "> 90%"}
{"SMILES": "CSc1nc(Cl)cc(Sc2nnc(-c3cc(C(F)(F)F)cc(C(F)(F)F)c3)[nH]2)n1", "target or system": "Escherichia coli", "system": "MC4100", "conditions": "42 °C, without PMBN", "quantity": "MIC", "result": "> 566 µg/mL"}
{"SMILES": "CC(C)Cc1nnc2c(C(=O)NC3c4ccccc4-c4ccccc43)cccn12", "target or system": "Escherichia coli", "test": "broth microdilution", "system": "MB5746 rpoZ Δ13-91 frameshift", "scale": "baseline: mutant over wild type", "quantity": "MIC ratio", "result": "> 32"}
{"SMILES": "CC#C/C(=N\\OC[C@H]1COCCN1)c1ccc2ncnc(Nc3ccc(OCc4cccc(F)c4)c(Cl)c3)c2c1", "target or system": "Tyrosine-protein kinase Blk (BLK, Homo sapiens, UniProt P51451)", "test": "kinase activity", "conditions": "10 µM", "quantity": "inhibition", "result": "42.9%"}
{"SMILES": "Oc1ccc(C2NCCc3c2[nH]c2ccc(Cl)cc32)cc1O (stereo not drawn)", "target or system": "dengue virus 4", "test": "viral replication, plaque reduction", "system": "TVP360", "conditions": "bound stated in text", "quantity": "IC50", "result": "≤ 1000 nM"}
{"SMILES": "CCN1CCN(Cc2ccc(NC(=O)c3ccc(C)c(/C=C/c4cnc5[nH]ccc5c4OC)c3)cc2C(F)(F)F)CC1", "target or system": "Serine/threonine-protein kinase 32B (STK32B, Homo sapiens, UniProt Q9NY57)", "test": "inhibitor, cell-based kinome screen", "system": "human cells", "conditions": "5 µM", "scale": "baseline: vehicle", "quantity": "log2 fold change", "result": 0.639}
{"SMILES": "CCc1nc(N)nc(N)c1C#C[C@H](C)c1cc(OC)cc(-c2ccc(C(=O)O)cc2)c1", "target or system": "Staphylococcus aureus", "system": "MRSA isolate UCH 121", "quantity": "MIC", "result": "5 µg/mL"}
{"SMILES": "CCCCCCC1c2ccc(O)cc2Oc2cc(O)ccc21", "target or system": "Shigella flexneri", "system": "ATCC 12022", "conditions": "together with: PMBN 25 µg/mL", "quantity": "MIC", "result": "1.7 µg/mL"}
{"SMILES": "CCc1nc(N)nc(N)c1C#CCc1cc(OC)c(OC)c(-c2ccncc2)c1", "target or system": "Staphylococcus aureus", "system": "MRSA isolate HH 1184", "quantity": "MIC", "result": "1.25 µg/mL"}
{"SMILES": "CCCc1nn2c(=O)cc(CSc3nc(-c4ccc(C)cc4)nc4cc(=O)[nH]n34)nc2s1", "target or system": "dengue virus 4", "test": "viral replication, plaque reduction", "system": "BHK-21, TVP360", "quantity": "IC50", "result": "1000 to 10000 nM"}
{"SMILES": "CCNC(=O)C(CCCCNC(=O)CCOCCOCCOCCOCCNC(=O)CCNc1ccc(-c2nc3ccc(C)cc3s2)cc1)NC(=O)C(CCCCNC(=O)CCOCCOCCOCCOCCNC(=O)CCNc1ccc(-c2nc3ccc(C)cc3s2)cc1)NC(=O)C(CCCCNC(=O)CCOCCOCCOCCOCCNC(=O)CCNc1ccc(-c2nc3ccc(C)cc3s2)cc1)NC(=O)C(CCCCNC(=O)CCOCCOCCOCCOCCNC(=O)CCNc1ccc(-c2nc3ccc(C)cc3s2)cc1)NC(=O)CCOCCOCCOCCOCCNC(=O)CCNc1ccc(-c2nc3ccc(C)cc3s2)cc1 (stereo not drawn)", "target or system": "HIV-1", "test": "SEVI-enhanced infection, luciferase reporter", "system": "TZM-bl, IIIB", "quantity": "IC50", "result": "~200 nM"}
{"SMILES": "CCc1nc(N)nc(N)c1C#CCc1cc(OC)cc(-c2ccc(C(=O)O)cc2)c1", "target or system": "Staphylococcus aureus", "system": "MRSA isolate UCH 121", "quantity": "MIC", "result": "10 µg/mL"}
{"note": "Some of these lines once more:"}
{"SMILES": "CCNC(=O)C(CCCCNC(=O)CCOCCOCCOCCOCCNC(=O)CCNc1ccc(-c2nc3ccc(C)cc3s2)cc1)NC(=O)C(CCCCNC(=O)CCOCCOCCOCCOCCNC(=O)CCNc1ccc(-c2nc3ccc(C)cc3s2)cc1)NC(=O)C(CCCCNC(=O)CCOCCOCCOCCOCCNC(=O)CCNc1ccc(-c2nc3ccc(C)cc3s2)cc1)NC(=O)C(CCCCNC(=O)CCOCCOCCOCCOCCNC(=O)CCNc1ccc(-c2nc3ccc(C)cc3s2)cc1)NC(=O)CCOCCOCCOCCOCCNC(=O)CCNc1ccc(-c2nc3ccc(C)cc3s2)cc1 (stereo not drawn)", "target or system": "HIV-1", "test": "SEVI-enhanced infection, luciferase reporter", "system": "TZM-bl, IIIB", "quantity": "IC50", "result": "~200 nM"}
{"SMILES": "CCc1nc(N)nc(N)c1C#CCc1cc(OC)cc(-c2ccc(C(=O)O)cc2)c1", "target or system": "Staphylococcus aureus", "system": "MRSA isolate UCH 121", "quantity": "MIC", "result": "10 µg/mL"}
